Assay results collected from several papers.
A part holds a random share of what one study measured.
UniProt P10721, sequence (whole entry, unmodified, looked up): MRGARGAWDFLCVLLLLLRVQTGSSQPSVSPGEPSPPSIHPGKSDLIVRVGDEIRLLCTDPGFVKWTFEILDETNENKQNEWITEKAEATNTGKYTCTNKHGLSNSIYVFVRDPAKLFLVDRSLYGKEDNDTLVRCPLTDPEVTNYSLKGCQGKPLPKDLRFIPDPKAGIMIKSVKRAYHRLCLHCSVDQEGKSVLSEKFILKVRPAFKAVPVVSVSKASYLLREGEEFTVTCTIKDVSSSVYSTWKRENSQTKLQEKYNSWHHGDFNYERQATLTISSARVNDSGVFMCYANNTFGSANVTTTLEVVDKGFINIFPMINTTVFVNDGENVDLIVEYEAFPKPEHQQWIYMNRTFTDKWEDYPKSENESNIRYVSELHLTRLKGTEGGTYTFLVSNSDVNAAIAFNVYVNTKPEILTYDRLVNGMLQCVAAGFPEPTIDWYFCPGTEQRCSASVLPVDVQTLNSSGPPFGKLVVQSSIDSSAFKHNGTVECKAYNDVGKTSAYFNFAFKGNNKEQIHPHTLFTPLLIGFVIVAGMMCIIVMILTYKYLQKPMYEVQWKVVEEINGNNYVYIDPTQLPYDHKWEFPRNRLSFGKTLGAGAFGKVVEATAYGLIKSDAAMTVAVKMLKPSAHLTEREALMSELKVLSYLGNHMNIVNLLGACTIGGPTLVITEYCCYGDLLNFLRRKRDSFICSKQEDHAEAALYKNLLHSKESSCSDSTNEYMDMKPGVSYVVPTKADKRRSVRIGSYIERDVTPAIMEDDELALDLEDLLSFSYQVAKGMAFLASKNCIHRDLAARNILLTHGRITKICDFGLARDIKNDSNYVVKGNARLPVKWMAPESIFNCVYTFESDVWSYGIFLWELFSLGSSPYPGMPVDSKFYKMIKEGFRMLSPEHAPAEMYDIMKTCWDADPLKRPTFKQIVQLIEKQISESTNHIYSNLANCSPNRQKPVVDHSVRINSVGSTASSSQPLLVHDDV
UniProt O15264, sequence (whole entry, looked up): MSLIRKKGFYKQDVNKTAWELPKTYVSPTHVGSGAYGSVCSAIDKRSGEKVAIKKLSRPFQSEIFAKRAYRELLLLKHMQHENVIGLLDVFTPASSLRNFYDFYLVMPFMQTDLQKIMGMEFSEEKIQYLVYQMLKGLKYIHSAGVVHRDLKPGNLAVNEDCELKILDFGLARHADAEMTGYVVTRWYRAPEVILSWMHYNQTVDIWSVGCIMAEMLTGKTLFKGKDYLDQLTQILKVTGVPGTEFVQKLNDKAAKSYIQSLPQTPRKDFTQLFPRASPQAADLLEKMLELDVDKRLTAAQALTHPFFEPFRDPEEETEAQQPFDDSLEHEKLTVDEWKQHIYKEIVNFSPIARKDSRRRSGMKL
UniProt Q16620, sequence (whole entry, looked up): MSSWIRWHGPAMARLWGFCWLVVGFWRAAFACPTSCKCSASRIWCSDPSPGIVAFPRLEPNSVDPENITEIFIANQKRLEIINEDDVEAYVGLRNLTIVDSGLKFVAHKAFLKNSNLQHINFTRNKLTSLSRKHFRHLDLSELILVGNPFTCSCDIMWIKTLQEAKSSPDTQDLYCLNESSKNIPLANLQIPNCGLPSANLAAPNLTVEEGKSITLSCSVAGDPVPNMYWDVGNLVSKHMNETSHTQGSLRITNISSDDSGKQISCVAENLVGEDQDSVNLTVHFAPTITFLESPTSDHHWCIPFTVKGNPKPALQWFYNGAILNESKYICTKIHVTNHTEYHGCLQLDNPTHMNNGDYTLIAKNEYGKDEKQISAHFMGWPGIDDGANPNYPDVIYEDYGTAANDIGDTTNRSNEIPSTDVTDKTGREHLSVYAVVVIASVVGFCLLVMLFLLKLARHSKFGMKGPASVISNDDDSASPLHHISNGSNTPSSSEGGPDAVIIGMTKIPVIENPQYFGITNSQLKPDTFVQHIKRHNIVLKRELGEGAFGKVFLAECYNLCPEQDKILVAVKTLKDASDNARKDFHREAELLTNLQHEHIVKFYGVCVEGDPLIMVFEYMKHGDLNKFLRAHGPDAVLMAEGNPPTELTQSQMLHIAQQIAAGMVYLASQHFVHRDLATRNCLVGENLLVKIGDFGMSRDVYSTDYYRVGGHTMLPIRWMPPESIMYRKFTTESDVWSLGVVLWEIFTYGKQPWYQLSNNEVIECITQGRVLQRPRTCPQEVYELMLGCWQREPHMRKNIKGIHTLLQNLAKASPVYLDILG
UniProt Q8NG66, sequence (whole entry, looked up): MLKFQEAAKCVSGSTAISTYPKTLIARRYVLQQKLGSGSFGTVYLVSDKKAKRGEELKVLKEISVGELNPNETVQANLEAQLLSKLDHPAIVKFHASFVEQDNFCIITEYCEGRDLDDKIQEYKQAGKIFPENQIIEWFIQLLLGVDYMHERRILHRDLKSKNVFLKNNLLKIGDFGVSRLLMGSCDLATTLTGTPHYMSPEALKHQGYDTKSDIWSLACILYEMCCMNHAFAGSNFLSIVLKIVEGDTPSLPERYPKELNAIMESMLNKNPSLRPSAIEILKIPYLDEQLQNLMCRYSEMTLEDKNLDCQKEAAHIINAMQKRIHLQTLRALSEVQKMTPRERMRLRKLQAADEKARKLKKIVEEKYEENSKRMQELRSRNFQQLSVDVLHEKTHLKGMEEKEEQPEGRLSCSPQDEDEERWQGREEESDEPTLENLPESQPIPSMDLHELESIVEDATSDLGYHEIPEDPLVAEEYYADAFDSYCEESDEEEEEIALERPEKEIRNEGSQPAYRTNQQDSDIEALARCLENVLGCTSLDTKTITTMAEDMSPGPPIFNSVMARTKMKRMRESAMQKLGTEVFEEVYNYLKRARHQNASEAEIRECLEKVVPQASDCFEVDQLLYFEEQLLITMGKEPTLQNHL
UniProt Q13976, sequence (whole entry, looked up): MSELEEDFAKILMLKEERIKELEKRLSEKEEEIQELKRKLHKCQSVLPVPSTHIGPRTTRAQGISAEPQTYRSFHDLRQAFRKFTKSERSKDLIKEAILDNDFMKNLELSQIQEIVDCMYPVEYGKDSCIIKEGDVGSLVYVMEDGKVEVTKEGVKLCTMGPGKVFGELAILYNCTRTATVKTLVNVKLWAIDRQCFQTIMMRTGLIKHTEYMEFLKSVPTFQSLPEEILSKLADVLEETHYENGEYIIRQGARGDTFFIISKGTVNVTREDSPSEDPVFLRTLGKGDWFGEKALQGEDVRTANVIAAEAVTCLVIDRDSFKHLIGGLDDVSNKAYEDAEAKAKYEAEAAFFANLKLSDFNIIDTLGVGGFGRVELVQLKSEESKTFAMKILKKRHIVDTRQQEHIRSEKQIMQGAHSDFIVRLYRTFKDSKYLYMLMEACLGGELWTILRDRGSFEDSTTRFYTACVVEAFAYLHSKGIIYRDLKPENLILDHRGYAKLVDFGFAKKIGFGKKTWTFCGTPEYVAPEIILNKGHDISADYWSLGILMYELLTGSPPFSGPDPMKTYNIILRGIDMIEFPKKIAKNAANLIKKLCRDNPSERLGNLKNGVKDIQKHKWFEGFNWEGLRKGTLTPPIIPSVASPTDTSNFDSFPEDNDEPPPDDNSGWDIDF
UniProt Q9HBH9, sequence (whole entry, looked up): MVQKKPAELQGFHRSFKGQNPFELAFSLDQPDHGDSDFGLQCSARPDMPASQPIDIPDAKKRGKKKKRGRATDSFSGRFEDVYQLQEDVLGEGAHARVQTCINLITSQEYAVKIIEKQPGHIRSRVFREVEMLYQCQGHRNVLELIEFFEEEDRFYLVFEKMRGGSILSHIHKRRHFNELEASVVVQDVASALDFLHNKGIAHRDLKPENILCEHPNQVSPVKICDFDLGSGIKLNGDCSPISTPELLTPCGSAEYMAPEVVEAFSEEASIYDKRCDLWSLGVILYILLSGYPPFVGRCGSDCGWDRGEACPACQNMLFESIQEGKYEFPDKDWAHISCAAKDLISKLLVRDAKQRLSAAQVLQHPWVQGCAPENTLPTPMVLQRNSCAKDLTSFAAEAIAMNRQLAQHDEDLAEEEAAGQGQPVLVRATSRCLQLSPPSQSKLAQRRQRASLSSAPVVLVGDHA
UniProt P78362, sequence (whole entry, looked up): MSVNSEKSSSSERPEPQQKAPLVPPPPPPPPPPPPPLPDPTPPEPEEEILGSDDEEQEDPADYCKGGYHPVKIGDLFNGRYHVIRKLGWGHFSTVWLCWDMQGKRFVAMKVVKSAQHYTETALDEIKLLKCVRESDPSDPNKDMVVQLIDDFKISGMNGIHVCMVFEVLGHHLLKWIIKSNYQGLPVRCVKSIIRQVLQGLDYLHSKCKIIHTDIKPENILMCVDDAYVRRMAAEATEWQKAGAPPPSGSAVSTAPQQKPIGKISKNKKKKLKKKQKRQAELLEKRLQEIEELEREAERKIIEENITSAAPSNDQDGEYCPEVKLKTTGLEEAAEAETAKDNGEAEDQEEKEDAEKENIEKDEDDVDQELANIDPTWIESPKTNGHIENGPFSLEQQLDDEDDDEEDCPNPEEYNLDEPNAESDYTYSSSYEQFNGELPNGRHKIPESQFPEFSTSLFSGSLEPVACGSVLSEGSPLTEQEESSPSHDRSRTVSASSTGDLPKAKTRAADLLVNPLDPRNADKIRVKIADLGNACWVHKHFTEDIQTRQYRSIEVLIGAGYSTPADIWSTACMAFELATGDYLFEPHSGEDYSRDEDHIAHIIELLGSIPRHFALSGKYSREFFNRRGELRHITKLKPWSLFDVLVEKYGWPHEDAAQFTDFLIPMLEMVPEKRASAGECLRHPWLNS
UniProt P48729, sequence (whole entry, looked up): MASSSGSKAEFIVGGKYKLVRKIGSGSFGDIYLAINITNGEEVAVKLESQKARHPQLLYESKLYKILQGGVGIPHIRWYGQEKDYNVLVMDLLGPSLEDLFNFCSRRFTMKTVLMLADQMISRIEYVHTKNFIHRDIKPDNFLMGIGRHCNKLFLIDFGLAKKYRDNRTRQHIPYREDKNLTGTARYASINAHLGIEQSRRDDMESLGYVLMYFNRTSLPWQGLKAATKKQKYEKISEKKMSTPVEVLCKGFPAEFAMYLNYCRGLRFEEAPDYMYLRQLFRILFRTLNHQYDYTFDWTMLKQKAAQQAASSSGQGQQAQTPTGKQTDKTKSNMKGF

Block 1
Organism: Plasmodium berghei
Cells: Huh-7
Strain: liver stage
Tested at: 10 µM
Time: 24 h
Baseline: control
Quantity: parasite load
C[N+]1(C)[C@@H]2C[C@@H](OC(=O)[C@H](CO)c3ccccc3)C[C@H]1[C@@H]1O[C@@H]12: 104%
O=C1OCCN1/N=C/c1ccc([N+](=O)[O-])o1: 54.7%
CN1CCN(CC(=O)N2c3ccccc3C(=O)Nc3cccnc32)CC1: 106%
CC(C)NCC(O)COc1cccc2ccccc12 (racemic): 87.6%
CC(=O)Nc1ccc(S(=O)(=O)c2ccc(NC(C)=O)cc2)cc1: 110%
CC(C)C[C@H]1C(=O)N2CCC[C@H]2[C@]2(O)O[C@](NC(=O)[C@@H]3C=C4c5cccc6[nH]c(Br)c(c56)C[C@H]4N(C)C3)(C(C)C)C(=O)N12: 55.8%
C[N+](C)(C)CCCCCCCCCC[N+](C)(C)C: 85.8%
CC(=O)[C@H]1CC[C@H]2[C@@H]3CC=C4C[C@@H](OC(=O)CCC(=O)O)CC[C@]4(C)[C@H]3CC[C@]12C: 50.7%
COc1ccc(CCN(C)CCCC(C#N)(c2ccc(OC)c(OC)c2)C(C)C)cc1OC (centres unmarked): 48.9%
Cc1cc2c(s1)Nc1ccccc1N=C2N1CCN(C)CC1: 91.2%
CC(C)(C(=O)O)c1ccc(C(O)CCCN2CCC(C(O)(c3ccccc3)c3ccccc3)CC2)cc1 (centres unmarked): 112%
CN1[C@@H]2C[C@@H](OC(=O)[C@H](CO)c3ccccc3)C[C@H]1[C@@H]1O[C@@H]12: 112%
CN[C@H](CC(C)C)C(=O)N[C@H]1C(=O)N[C@@H](CC(N)=O)C(=O)N[C@H]2C(=O)N[C@H]3C(=O)N[C@H](C(=O)N[C@H](C(=O)O)c4cc(O)cc(O)c4-c4cc3ccc4O)[C@H](O)c3ccc(c(Cl)c3)Oc3cc2cc(c3O[C@@H]2O[C@H](CO)[C@@H](O)[C@H](O)[C@H]2O[C@H]2C[C@](C)(N)[C@H](O)[C@H](C)O2)Oc2ccc(cc2Cl)[C@H]1O: 97.2%
CCCNCC(O)COc1ccccc1C(=O)CCc1ccccc1 (centres unmarked): 80.1%
O=[N+]([O-])O[C@@H]1CO[C@H]2[C@@H]1OC[C@@H]2O: 106%
CC/C(=C(\c1ccccc1)c1ccc(OCCN(C)C)cc1)c1ccccc1: 10.4%
CN1[C@@H]2CC[C@H]1C[C@@H](OC(c1ccccc1)c1ccccc1)C2: 74.7%

Block 2
Compound: CC[n+]1c(/C=C/N(C)c2ccccc2)n(-c2ccccc2)c2ccc(-c3nc4ccccc4s3)cc21
Observed: enzyme activity
Mode: inhibitor
Tested at: 0.5 µM
Baseline: control
Quantity: remaining activity
Protein kinase C delta type (PRKCD, Homo sapiens, UniProt Q05655): 93.3%
Mast/stem cell growth factor receptor Kit (KIT, Homo sapiens, UniProt P10721): 104%
MAP kinase-interacting serine/threonine-protein kinase 2 (MKNK2, Homo sapiens, UniProt Q9HBH9): 97.4%
Tyrosine-protein kinase BTK (BTK, Homo sapiens, UniProt Q06187): 91.6%
Tyrosine-protein kinase Lyn (LYN, Homo sapiens, UniProt P07948): 100%
Casein kinase II subunit alpha (CSNK2A1, Homo sapiens, UniProt P68400): 96.8%
Casein kinase I isoform alpha (CSNK1A1, Homo sapiens, UniProt P48729): 106%
Mitogen-activated protein kinase kinase kinase kinase 2 (MAP4K2, Homo sapiens, UniProt Q12851): 103%
Serine/threonine-protein kinase Nek4 (NEK4, Homo sapiens, UniProt P51957): 90.5%
Serine/threonine-protein kinase Chk1 (CHEK1, Homo sapiens, UniProt O14757): 103%
RAC-gamma serine/threonine-protein kinase (AKT3, Homo sapiens, UniProt Q9Y243): 109%
Leucine-rich repeat serine/threonine-protein kinase 2 (LRRK2, Homo sapiens, UniProt Q5S007): 95.5%
cGMP-dependent protein kinase 1 (PRKG1, Homo sapiens, UniProt Q13976): 104%
Mitogen-activated protein kinase kinase kinase 10 (MAP3K10, Homo sapiens, UniProt Q02779): 103%
Interleukin-1 receptor-associated kinase 4 (IRAK4, Homo sapiens, UniProt Q9NWZ3): 173%
Serine/threonine-protein kinase WNK2 (WNK2, Homo sapiens, UniProt Q9Y3S1): 112%
Protein kinase C iota type (PRKCI, Homo sapiens, UniProt P41743): 90.1%
Dual specificity mitogen-activated protein kinase kinase 6 (MAP2K6, Homo sapiens, UniProt P52564): 103%
Cyclin-dependent kinase 9, with cyclin T1 (CDK9, Homo sapiens, UniProt P50750): 89.5%
Mitogen-activated protein kinase 12 (MAPK12, Homo sapiens, UniProt P53778): 105%
Serine/threonine-protein kinase PLK2 (PLK2, Homo sapiens, UniProt Q9NYY3): 93.1%
Mitogen-activated protein kinase 13 (MAPK13, Homo sapiens, UniProt O15264): 102%
Ephrin type-A receptor 5 (EPHA5, Homo sapiens, UniProt P54756): 100%

Block 3
Target: Bromodomain-containing protein 4, BD1 (BRD4, Homo sapiens, UniProt O60885)
Observed: acetyl-histone H4 peptide binding
Technique: AlphaScreen displacement
Tested at: 50 µM
Quantity: inhibition
N#CC(=C(N)Sc1ccc(N)cc1)c1ccccc1C(F)(F)F: 6.5%
O=c1cc(N2CCOCC2)oc2c(-c3ccccc3)cccc12: 17.7%
Cc1cc(C=C2C(=O)C=CC2=O)cc(C)c1O: 54.2%
CC(=C(C#N)c1nc2ccccc2s1)c1ccc(Cl)cc1: 0%
O=C1NC(=O)C(=Cc2cccc(OCc3ccc(Cl)cc3Cl)c2)S1: -2.05%
N#CC(C(=O)C1CC1)=C1Nc2ccccc2S1: 9.3%
COc1cc2ncn(-c3cc(OCc4ccccc4S(C)(=O)=O)c(C#N)s3)c2cc1OC: -5.5%
COc1ccc(-c2nnc3ccc(SCc4cccnc4)nn23)cc1OC: 18.1%
N#CC(=Cc1cccc(F)c1)c1nc2ccccc2s1: 11.1%
Cc1cncc2cccc(S(=O)(=O)N3CCCNC[C@@H]3C)c12: 2.15%
CCN(CC)c1ccc(Nc2nc(-c3c(C)nc4ccccn34)cs2)cc1: 97.3%
COc1ccc(C(C#N)=Cc2ccccn2)cc1OC: -2.9%

Block 4
Compound: FC(F)(F)c1ccc2c(c1)nc(-c1cccnc1)n2C1CC1
Observed: cell-free assay
Technique: competition with immobilised ligand
Tested at: 1 µM
Quantity: remaining binding
Mast/stem cell growth factor receptor Kit (KIT, Homo sapiens, UniProt P10721, T670I/V559D): 100%
Mast/stem cell growth factor receptor Kit (KIT, Homo sapiens, UniProt P10721, L576P): 100%
Serine/threonine-protein kinase 3 (STK3, Homo sapiens, UniProt Q13188): 94%
SRSF protein kinase 2 (SRPK2, Homo sapiens, UniProt P78362): 93%
Non-receptor tyrosine-protein kinase TNK1 (TNK1, Homo sapiens, UniProt Q13470): 100%
Epidermal growth factor receptor (EGFR, Homo sapiens, UniProt P00533, L861Q): 100%
Serine/threonine-protein kinase PAK 2 (PAK2, Homo sapiens, UniProt Q13177): 100%
Phosphatidylinositol 4,5-bisphosphate 3-kinase catalytic subunit delta isoform (PIK3CD, Homo sapiens, UniProt O00329): 81%
Tyrosine-protein kinase TXK (TXK, Homo sapiens, UniProt P42681): 100%
Rho-associated protein kinase 1 (ROCK1, Homo sapiens, UniProt Q13464): 100%
Epidermal growth factor receptor (EGFR, Homo sapiens, UniProt P00533, del752-759): 100%
Activated CDC42 kinase 1 (TNK2, Homo sapiens, UniProt Q07912): 100%
Serine/threonine-protein kinase Nek11 (NEK11, Homo sapiens, UniProt Q8NG66): 100%
BDNF/NT-3 growth factors receptor (NTRK2, Homo sapiens, UniProt Q16620): 100%
SNF-related serine/threonine-protein kinase (SNRK, Homo sapiens, UniProt Q9NRH2): 82%
Dual specificity mitogen-activated protein kinase kinase 7 (MAP2K7, Homo sapiens, UniProt O14733): 100%
Dual specificity tyrosine-phosphorylation-regulated kinase 1A (DYRK1A, Homo sapiens, UniProt Q13627): 100%
Cyclin-dependent kinase-like 1 (CDKL1, Homo sapiens, UniProt Q00532): 91%
Serine/threonine-protein kinase BRSK1 (BRSK1, Homo sapiens, UniProt Q8TDC3): 100%
Serine/threonine-protein kinase TAO1 (TAOK1, Homo sapiens, UniProt Q7L7X3): 100%
Mitogen-activated protein kinase kinase kinase 14 (MAP3K14, Homo sapiens, UniProt Q99558): 100%
TRAF2 and NCK-interacting protein kinase (TNIK, Homo sapiens, UniProt Q9UKE5): 100%
Ephrin type-B receptor 1 (EPHB1, Homo sapiens, UniProt P54762): 100%
Dual specificity protein kinase CLK1 (CLK1, Homo sapiens, UniProt P49759): 100%
Cyclin-dependent kinase-like 5 (CDKL5, Homo sapiens, UniProt O76039): 91%

Excerpt of the above (block 4):
Ephrin type-B receptor 1 (EPHB1, Homo sapiens, UniProt P54762): 100%
SNF-related serine/threonine-protein kinase (SNRK, Homo sapiens, UniProt Q9NRH2): 82%
Tyrosine-protein kinase TXK (TXK, Homo sapiens, UniProt P42681): 100%
Mast/stem cell growth factor receptor Kit (KIT, Homo sapiens, UniProt P10721, T670I/V559D): 100%
Serine/threonine-protein kinase BRSK1 (BRSK1, Homo sapiens, UniProt Q8TDC3): 100%
Cyclin-dependent kinase-like 1 (CDKL1, Homo sapiens, UniProt Q00532): 91%
Serine/threonine-protein kinase PAK 2 (PAK2, Homo sapiens, UniProt Q13177): 100%
Dual specificity mitogen-activated protein kinase kinase 7 (MAP2K7, Homo sapiens, UniProt O14733): 100%
